Published values of several laboratories.
Every numbered part comes from another study and shows a few of its results, in no order. Positions count from the first letter of the parent shown.

Study 1 — technique: DHFR PCA, deep sequencing; sample: yeast; with: (+)-ABA 0.39 µM; relative to: wild-type fitted maximum; direction: higher = stronger binding
Target: ABI1, truncated, D143A, DHFR fusion (Arabidopsis thaliana)
Setting: methotrexate growth selection, single substitutions
Parent: PYL1, truncated, DHFR fusion (Arabidopsis thaliana); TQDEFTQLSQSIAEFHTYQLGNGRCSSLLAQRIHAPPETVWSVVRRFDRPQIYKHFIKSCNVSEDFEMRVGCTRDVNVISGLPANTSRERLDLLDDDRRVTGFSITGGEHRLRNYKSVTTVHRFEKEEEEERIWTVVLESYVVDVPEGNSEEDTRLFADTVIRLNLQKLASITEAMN
| Change | relative binding score |
| --- | --- |
| G81P | 28.1% |
| K58G | -0.624% |
| N61L | 35.9% |
| E129K | 38.1% |
| Q31E | 7.64% |
| S87M | 32% |
| G148S | -9.54% |
| R123D | 22.2% |
| W134M | 60.6% |
| R90G | -6.09% |
| A84F | 84.5% |
| L20V | 64.3% |
| V43M | 12.8% |
| A35H | -10.8% |
| D3K | 27.8% |
| L20T | 62.6% |
| A35S | 8.21% |
| V40M | -10.9% |
| E109T | 18.8% |
| A35F | 3.07% |
| V62Q | -19.3% |
| T120C | -4.82% |
| D159W | -13.1% |
| S117L | -2.07% |
| V44H | -10.3% |

Study 2 — target: CCNB3, cyclin fold, Cln2 fusion (human); technique: yeast growth competition, sequencing; sample: yeast; setting: strong parent motif; relative to: not given; direction: higher = stronger binding
Parent: SCAPER docking peptide (human); SNARRSLNFGGST
| Change | normalised enrichment score |
| --- | --- |
| A3V | 2.27 |
| R4L | -0.398 |
| S6R | 1.93 |
| L7S | 0.521 |
| S6P | 0.627 |
| F9Q | -0.093 |
| G11P | 1.01 |
| L7Q | 0.379 |
| G11Y | 0.895 |
| R5Y | 0.132 |
| T13I | 1.38 |
| G11R | 0.506 |
| T13M | 1.31 |
| N8G | 0.378 |
| S6T | 2.88 |
| N8P | 0.699 |
| G10N | 0.972 |
| T13D | 2.15 |
| S12F | 1.25 |
| S1H | 1.56 |
| T13S | 1.49 |
| G10K | 0.738 |
| R5L | 0.282 |
| N8V | 1.12 |
| S6V | 2.28 |

Study 3 — technique: universal PBM; form: double-stranded DNA, one strand shown; sample: in vitro; concentration: not given; direction: higher = stronger binding
Target: Sal-like protein 4, full length isoform B (SALL4, Homo sapiens, UniProt Q9UJQ4-2, residues 1-616)
Setting: 8-mer, flanks averaged, mean of replicates
| Strand | E-score |
| --- | --- |
| CTACCTAA | 0.0348 |
| ACGCCCCG | -0.386 |
| GTCCAGGA | -0.0422 |
| CCATAGGC | -0.183 |
| CCCCAGCA | -0.138 |
| GGGTCCCA | -0.227 |
| ATTGGAAG | 0.0514 |
| AGGCACAC | -0.0834 |
| ACGTAACC | -0.0296 |
| AATCTACG | 0.0215 |
| TCCCTCAA | -0.0882 |
| CTGTATTA | 0.276 |
| GGATTAGA | -0.0486 |
| CTCCAACA | -0.0179 |
| TAGCAGCA | -0.0808 |
| ATCTGAAA | 0.135 |
| AGACGCTG | -0.162 |
| TAGCCGAA | -0.129 |
| GAACCACA | 0.091 |
| CAACTGAG | -0.0361 |
| CCTGTGTC | -0.223 |
| GCGCTGCC | -0.313 |
| ATAGTGTG | 0.0826 |
| ATCCAAAC | 0.186 |
| CATTCGTA | 0.242 |

Study 4 — technique: protein binding microarray; form: double-stranded DNA, one strand shown; sample: in vitro; concentration: not given; relative to: not given; direction: higher = stronger binding
Target: Histone acetyltransferase KAT6A, both winged helices, GST fusion (KAT6A, Homo sapiens, UniProt Q92794, residues 1-181)
Setting: 8-mer, flanks averaged, mean of 2 arrays, mostly near background
Residues (chain): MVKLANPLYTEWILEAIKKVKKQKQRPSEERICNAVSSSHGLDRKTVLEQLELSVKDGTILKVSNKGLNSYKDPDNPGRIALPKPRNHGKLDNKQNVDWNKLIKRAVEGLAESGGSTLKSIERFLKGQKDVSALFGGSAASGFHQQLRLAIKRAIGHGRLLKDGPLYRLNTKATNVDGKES
| Strand | E-score |
| --- | --- |
| TGAACAAA | 0.05 |
| TAAACCAA | -0.0818 |
| CCCTTCGA | -0.091 |
| ACTTAAGA | -0.00106 |
| CACACGAC | 0.026 |
| GGTACCAC | -0.204 |
| ACACTTCC | -0.036 |
| CGCATAAA | 0.0996 |
| ACCCGCCA | 0.128 |
| CAATTGTA | -0.0631 |
| AGACCACG | -0.113 |
| CAAAAAAA | 0.0235 |
| AGTAAGAG | -0.124 |
| CAAGCCAC | -0.2 |
| ATCTTGTC | -0.0223 |
| AAACAAAG | -0.11 |
| CATCATGC | 0.0023 |
| AACGCTTG | -0.0342 |
| AGGTTCCG | 0.203 |
| AAATTAGA | -0.0824 |
| AAGTTATA | -0.0857 |
| GTCGCGTA | 0.248 |
| ATAGGCAG | -0.185 |

Repeated from above (study 4):
| Strand | E-score |
| --- | --- |
| ATCTTGTC | -0.0223 |
| CCCTTCGA | -0.091 |
| TGAACAAA | 0.05 |
| ATAGGCAG | -0.185 |
| CGCATAAA | 0.0996 |
| AAATTAGA | -0.0824 |
| CAAGCCAC | -0.2 |
| AACGCTTG | -0.0342 |
| CACACGAC | 0.026 |
| ACTTAAGA | -0.00106 |
| TAAACCAA | -0.0818 |
| AGACCACG | -0.113 |
| AGGTTCCG | 0.203 |
